Assay results collected from several papers.
Protocols differ between the studies behind these lines. Values joined by “and” are separate records of one study, mostly repeats; a detail may differ. ± marks the error that the study gave. Converted amounts (≈) assume the structure as drawn.

Structure (SMILES) | assay | system | setting | scale | endpoint | value
Cc1cc(C(=O)NC(C)(C)COc2cccc3c2C(N)=NS(=O)(=O)N3)cc(C)n1 |  | Sprague-Dawley rat, plasma | oral, 100 mg/kg, vehicle 1% methylcellulose | relative to: female over male | Cmax ratio | 0.51
c1cc(-c2ccc3ncnc(Nc4ncco4)c3c2)nc(N2CCOCC2)n1 |  | 0.1 M phosphate buffer | pH 7.4, 25 °C |  | thermodynamic solubility | 3 µM (≈ 1.13 µg/mL)
CCc1cc(C(=O)NC)c2nccc(N3CCc4c(cc(Cn5ccnc5)cc4-c4cn(C)nc4C(F)(F)F)C3=O)c2c1 |  | Sprague Dawley rats | oral, 100 mg/kg once daily, 7 days |  | serum cholesterol | 2.4 ± 0.52 mmol/L
CNC(=O)c1ccc(-c2cnc3ncc(Cc4ccc5ncccc5c4)n3n2)cc1F | refers to: Vomiting | gastric cancer patients | oral, 600 mg twice daily, expansion cohort, grade 3-4 |  | patients with adverse event | 0%
O=C1CCc2ccc(OCCCCN3CCN(c4cccc(Cl)c4Cl)CC3)cc2N1 |  | CYP2D6 poor metabolizers | concentration not given, genotype-based phenotype, long-acting oral or depot |  | extrapyramidal symptom frequency | 11%
O=c1oc2c(O)c(O)cc3c(=O)oc4c(O)c(O)cc1c4c23 |  | rat, plasma | oral, 500 mg/kg extract, extract |  | MRT | 4.83 ± 0.3 h
Cc1nc(-c2ccc(OCC(C)C)c(C#N)c2)sc1C(=O)O |  | KM mouse, chronic hyperuricaemia model | dose not given, day 28 |  | body weight | 38.6 g and 36 g and 45 g and 34.2 g and 40.4 g and 41.4 g
COc1ccc(Nc2nc(-c3ccccn3)nc3ccccc23)cc1 |  | Japanese Pharmacopoeia disintegration test solution 2 | pH 6.8 |  | kinetic solubility | 8 µg/mL (≈ 24.4 µM)
O=C(N[C@H](Cc1c[nH]c2ccccc12)C(=O)Nc1ccncc1)c1ccc(-c2ccc(F)c(Cl)c2)cc1F |  | Swiss Webster mouse, female, liver | oral, 50 mg/kg, 2 h, 20% HPβCD vehicle |  | concentration | 20.8 µM
O=C1NCCc2nc(OCc3cccc(F)c3)ccc21 | modified Irwin test | Sprague-Dawley rat, male | oral, 100 mg/kg, 30 min | higher = stronger change | respiratory rate score | 0
CN(CCCN1CCN(C(=O)CN2CCN(CC(=O)[O-])CCN(CC(=O)[O-])CCN(CC(=O)[O-])CC2)CC1)c1ccc2nccc(C(=O)NCC(=O)N3CC(F)(F)C[C@H]3C#N)c2c1.[68Ga+3] |  | mouse HT-1080-hFAP and HT-1080 xenografts, femur | intravenous, 500 pmol, 1 h |  | uptake | 1.1 ± 0.3 %IA/g
Cc1c(-c2ccc(N3CCc4cccc(C(=O)Nc5nc6ccccc6s5)c4C3)nc2C(=O)O)cnn1CC12CC3(C)CC(C)(C1)CC(OCCNCC[C@H](O)CO)(C3)C2 |  | anaesthetized male beagle dog | iv infusion, 0.1 mg/kg/min, 180 min |  | plasma concentration | < 4 ng/mL
CC(C)n1c(Nc2cccnc2)nc2cnc(Nc3ccc(N4CCN(C)CC4)cc3)nc21 | refers to: gamma-glutamyltransferase increased | healthy human, male | oral, dose not given, CTCAE grade 1-3 |  | subjects with TEAE | 2.4%
COCCOc1cnc2ccn([C@H](C)c3nnc4c(F)cc(-c5cnn(C)c5)cn34)c(=O)c2c1 |  | patients, plasma | oral, 150 mg twice daily, day 1 predose, 300 per day |  | Ctrough | 1.32 µg/mL
O=C(O)CCCOc1ccc([18F])cc1-c1cc(-c2ccccc2C(F)(F)F)n(-c2ccccc2)n1 | gamma counting | male ddY mice, brain | intravenous, 2.1 MBq, 60 min |  | radioactivity uptake | 0.23 ± 0.05 SUV
Cc1nn(CC(F)(F)F)cc1Nc1nccc(NCc2ccc(S(N)(=O)=O)cc2)n1 | PAMPA | PBS | 5 h, pH 7.4 |  | PAMPA permeability | not detected
CN1CCC[C@H](CN2c3ccccc3Sc3ccccc32)C1.Cl |  | ICR mouse female fasted, plasma | oral, 16 mg/kg |  | Tmax | 1 h
CCCOc1ccc(NC(=O)CN2CCN(C)CC2)cc1-c1nc(CC)c(CC)c(=O)[nH]1 |  | healthy Chinese men | 10 mg, together with: placebo |  | AUEC(0-4 h) pulse rate | 11.3 ± 14.7 h·bpm
C1=C/COCc2cc(ccc2OCCN2CCCC2)Nc2nccc(n2)-c2cccc(c2)COC/1 |  | rat plasma | 2 ng/mL, 4 h, room temperature | relative to: nominal concentration | stability relative error | 3.34%
Cc1nc2cccc(OCC(C)(C)C(=O)NC(C)C)c2c(N)c1C(=O)O |  | Sprague-Dawley rat, male, plasma | oral, 100 mg/kg, day 7 over day 1, 7-day repeated dosing | relative to: day 7 over day 1 | AUClast ratio | 1.05 ± 0.45
C=CC(=O)Nc1cc(Nc2nccc(-c3cn(C)c4ccccc34)n2)c(OC)cc1N(C)CCN(C)C | storage stability | human dried blood spot | 30 d, on ice, HQC level |  | recovery | 53.3%
N#CCC1CCN(c2nc(Nc3ccc(N4CCC(O)CC4)cc3)c3c(=O)[nH]ncc3n2)CC1 |  | human, plasma | oral, 40 mg once daily, day 1 |  | t1/2 | 546 min

Structure (SMILES) | assay | system | setting | scale | endpoint | value
COc1ccc([C@@H](O)c2cc(-c3ncnc4cc(N5CCOCC5)ccc34)c(F)cc2Cl)nn1 |  | locally advanced rectal cancer patients | 250 mg, together with: capecitabine and radiotherapy |  | drug-related nausea incidence | 17%
Cc1ncc(CO)c(C(=O)O)c1O |  | White men, plasma | dose not given |  | AUC(0-12h) | 39.1 ± 8.5 ng·h/mL
Cn1c(Cc2ccccc2)nnc1Sc1ccc([N+](=O)[O-])cc1C(=O)N1CCOCC1 |  | aqueous buffer | pH 7.4 |  | thermodynamic solubility | 140 µM (≈ 61.6 µg/mL)
COc1ncc(-c2nc3c(n2C(C)C)[C@H](c2ccc(Cl)cc2)N(c2cc(Cl)cn(C)c2=O)C3=O)c(OC)n1 | LC-MS/MS, noncompartmental | human, plasma | oral, 150 mg, cycle 1 day 8, high-dose, geometric mean |  | AUC(0-last) | 6320 ng·h/mL
C=CC(=O)Nc1cc(Nc2nccc(-c3cn(C)c4ccccc34)n2)c(OC)cc1N(C)CCN(C)C | refers to: maculopapular rash | EGFR-mutant MET-altered NSCLC patients | oral, dose not given, AE grade ≥3, all |  | incidence of treatment-related AEs | 1%
COc1cc(Nc2ncc3c(n2)-c2ccc(Cl)cc2C(c2c(F)cccc2OC)=NC3)ccc1C(=O)O | refers to: weight loss, grade 1 | cancer patients, phase 1/2 | oral, dose not given, together with: pembrolizumab |  | patients with adverse event | 17%
CCc1c(-c2ccccc2)c(-c2ccccc2)nn1-c1ccccc1-c1cccc(OCC(=O)O)c1 |  | Sprague-Dawley rat | oral, dose not given |  | AUC(all) | 5820 ng·h/mL and 4940 ng·h/mL
CCn1cc(C(=O)N2CCOCC2)c(=O)c2cc(NC3Cc4ccccc4C3)cnc21 |  | human, fed | oral suspension, 1200 mg/day twice daily, day 8, arithmetic mean |  | half-life | 5.4 h
Cn1cc(Nc2nccc(-c3ccc4c(c3)CN(C3COC3)CC[C@H]4NC(=O)c3cn(C(C)(C)C)nn3)n2)cn1 | refers to: Granulocytes count | human, clinical trial, whole blood | 150 mg twice daily, follow-up |  | percent change from baseline | 37.4%
CNC(=O)c1ccc(-c2cnc3ncc(Cc4ccc5ncccc5c4)n3n2)cc1F |  | Japanese patients | oral, 400 mg twice daily, any grade |  | Vertigo patients | 2%
Cc1ccc([C@@H]2O[C@H](CO)[C@@H](O)[C@H](O)[C@H]2O)cc1Cc1ccc(-c2ccc(F)cc2)s1 |  | Japanese type 2 diabetes patients | 25 mg, day 16, 24 h urine collection | relative to: baseline | urinary chloride excretion change | 1.57 mEq
C[C@@H]1COCCN1c1cc(C2([S@](C)(=N)=O)CC2)nc(-c2cc[nH]c3nccc2-3)n1 |  | Japanese advanced solid tumour patients | oral, 240 mg twice daily, any grade |  | Fatigue incidence | 16.7%
O=C(O)c1cc(O)c(O)c(O)c1 | LC-MS/MS | male Ross broilers, serum | intravenous, 0.49 mg/kg BW |  | Vd | 2.19 ± 1.98 L/kg
CC(C)(C(=O)N1CCOc2c(C#N)cncc2C1)C(F)F |  | human, both sexes | oral, 30 mg single dose |  | subjects with contact dermatitis TEAE | 16.7%
CCOCc1nc(O)c(-c2nnc(Cc3ccc(Cl)cn3)o2)c(O)c1-c1c(OC)cccc1OC |  | rat, anaesthetised, cannulated, plasma | intravenous infusion, 100 µg/kg/min, 30 min after infusion stop, washout |  | plasma concentration | 10.7 µM
N#Cc1ccc2c(c1)[C@H]1CCCN(C(=O)c3ccc4[nH]cnc4c3)[C@H]1C2 |  | human males | 360 mg, end of trial |  | DHEA-S level | 4.1 µmol/L
Cc1c(C(=O)O)ccc2c3n(nc12)[C@@H]1[C@H](C3)N(CC2CC2)[C@@]2(C(=O)Nc3cc(Cl)ccc32)[C@H]1c1cccc(Cl)c1F |  | human patients phase Ia | oral, dose not given, all grades, all patients |  | abdominal pain incidence | 11.1%
CCCCc1ccc(-c2ccc(C#N)cc2)cc1 |  | Sprague-Dawley rat, female, fetus | 5000 ng/mL in perfusate, 50 (unit not given), high dose, mixture of 21 LCMs |  | median fetal accumulation | 1.19 ng/g
Cc1ccc(Sc2ccccc2N2CCNCC2)c(C)c1 | refers to: Somnolence | healthy adult men | oral, 40 mg single dose, 10 day |  | participants with TEAE | 0%
CCCC1CCC(C2CCC(c3cc(F)c(F)c(F)c3)CC2)CC1 (stereo not shown) |  | rat, placenta | 5000 ng/mL in perfusate, high dose, mixture of 21 LCMs |  | median placental accumulation | 122 ng/g
O=C(Nc1nc2cccc(-c3ccc(CN4CCS(=O)(=O)CC4)cc3)n2n1)C1CC1 | refers to: paraesthesia | human rheumatoid arthritis patients | oral, 30 mg once daily, 4 weeks, regardless of relatedness |  | treatment-emergent adverse events | 5.9%

Repeated from above:
Structure (SMILES) | assay | system | setting | scale | endpoint | value
CCOCc1nc(O)c(-c2nnc(Cc3ccc(Cl)cn3)o2)c(O)c1-c1c(OC)cccc1OC |  | rat, anaesthetised, cannulated, plasma | intravenous infusion, 100 µg/kg/min, 30 min after infusion stop, washout |  | plasma concentration | 10.7 µM
COCCOc1cnc2ccn([C@H](C)c3nnc4c(F)cc(-c5cnn(C)c5)cn34)c(=O)c2c1 |  | patients, plasma | oral, 150 mg twice daily, day 1 predose, 300 per day |  | Ctrough | 1.32 µg/mL
C=CC(=O)Nc1cc(Nc2nccc(-c3cn(C)c4ccccc34)n2)c(OC)cc1N(C)CCN(C)C | refers to: maculopapular rash | EGFR-mutant MET-altered NSCLC patients | oral, dose not given, AE grade ≥3, all |  | incidence of treatment-related AEs | 1%
c1cc(-c2ccc3ncnc(Nc4ncco4)c3c2)nc(N2CCOCC2)n1 |  | 0.1 M phosphate buffer | pH 7.4, 25 °C |  | thermodynamic solubility | 3 µM (≈ 1.13 µg/mL)
CN(CCCN1CCN(C(=O)CN2CCN(CC(=O)[O-])CCN(CC(=O)[O-])CCN(CC(=O)[O-])CC2)CC1)c1ccc2nccc(C(=O)NCC(=O)N3CC(F)(F)C[C@H]3C#N)c2c1.[68Ga+3] |  | mouse HT-1080-hFAP and HT-1080 xenografts, femur | intravenous, 500 pmol, 1 h |  | uptake | 1.1 ± 0.3 %IA/g
C[C@@H]1COCCN1c1cc(C2([S@](C)(=N)=O)CC2)nc(-c2cc[nH]c3nccc2-3)n1 |  | Japanese advanced solid tumour patients | oral, 240 mg twice daily, any grade |  | Fatigue incidence | 16.7%
COc1ccc([C@@H](O)c2cc(-c3ncnc4cc(N5CCOCC5)ccc34)c(F)cc2Cl)nn1 |  | locally advanced rectal cancer patients | 250 mg, together with: capecitabine and radiotherapy |  | drug-related nausea incidence | 17%
